Experimental data from different studies.
A part holds a random share of what one study measured. Substitutions count along the parent as printed.

Sample 1 — observed: peptide-MHC binding; molecule type: peptide; tested at: concentration not given
Target: HLA class I histocompatibility antigen, A alpha chain, allele A*26:03 (Homo sapiens, UniProt P04439)
Molecule	binding
REVFYFGKF	inactive
SYINRTGTF	inactive
VFMDNAFKK	inactive
YYKDDISYF	inactive
VFFKQWFEK	inactive
IEVKFHPIL	inactive
YQYIFLSFF	inactive
GFPSLESSF	inactive
RSLFNTIATLY	inactive

Sample 2 — target: UBE2D2 UBC core domain (UniProt P62837); technique: yeast two-hybrid; medium: yeast; setting: mostly zero background; relative to: not given; direction: higher = stronger interaction
UniProt P62837, sequence (whole entry, looked up): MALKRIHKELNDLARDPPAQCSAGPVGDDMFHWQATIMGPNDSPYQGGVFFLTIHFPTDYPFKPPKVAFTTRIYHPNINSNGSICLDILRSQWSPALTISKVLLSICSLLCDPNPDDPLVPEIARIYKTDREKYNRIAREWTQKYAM
B1: TRIM34 RING domain (UniProt Q9BYJ4); chain ILLNVQEEVTCPICLELLTEPLSLDCGHSLCRACITVSNKEAVTSMGGKSSCPVCGISYSFEHLQA
B2: RNF10 RING domain (UniProt Q8N5U6); chain VRICSHEVPSCPICLYPPTAAKITRCGHIFCWACILHYLSLSEKTWSKCPICYSSVHKKDLKS
B3: SHPRH RING domain (UniProt Q149N8); chain KTSGGVNPEPCPICARQLGKQWAVLTCGHCFCNECISIIIEQYSVGSHRSSIKCAICRQTTSHKEISY
B4: RNF7 RING domain (UniProt Q9UBF6); chain AICRVQVMDACLRCQAENKQEDCVVVWGECNHSFHNCCMSLWVKQNNRCPLCQQDWVVQRIGK
B5: TRIM28 RING domain (UniProt Q13263); chain GAEALELLEHCGVCRERLRPEREPRLLPCLHSACSACLGPAAPAAANSSGDGGAAGDGTVVDCPVCKQQCFSKDIVE
Molecule	lacZ reporter activity
SNNDLASLFECPVCFDYVLPPILQCQSGHLVCSNCRPKLTCCPTCRGPLGSIRNLA (SIAH1 RING domain (UniProt Q8IUQ4))	2140
B1 (TRIM34 RING domain)	0
B2 (RNF10 RING domain)	0
EIKDYKARLTCPCCNMRKKDAVLTKCFHVFCFECVKTRYDTRQRKCPKCNAAFGANDFHR (RNF20 RING domain (UniProt Q5VTR2))	0
MEEMEEELKCPVCGSFYREPIILPCSHNLCQACARNILVQTPESESPQSHRAAGSGVSDY (TRIM9 RING domain (UniProt Q9C026))	0
B3 (SHPRH RING domain)	0
VPADASPDSKCPICLDRFDNVSYLDRCLHKFCFRCVQEWSKNKAECPLCKQPFDSIFHSV (TOPORS RING domain (UniProt Q9NS56))	17900
B4 (RNF7 RING domain)	0
B5 (TRIM28 RING domain)	0

Sample 3 — target: CCNA1, cyclin fold, Cln2 fusion (human); technique: yeast growth competition, sequencing; medium: yeast; setting: strong parent motif; relative to: not given; direction: higher = stronger binding
Starting sequence: viral docking peptide; TSVRRALFTGGSD; partner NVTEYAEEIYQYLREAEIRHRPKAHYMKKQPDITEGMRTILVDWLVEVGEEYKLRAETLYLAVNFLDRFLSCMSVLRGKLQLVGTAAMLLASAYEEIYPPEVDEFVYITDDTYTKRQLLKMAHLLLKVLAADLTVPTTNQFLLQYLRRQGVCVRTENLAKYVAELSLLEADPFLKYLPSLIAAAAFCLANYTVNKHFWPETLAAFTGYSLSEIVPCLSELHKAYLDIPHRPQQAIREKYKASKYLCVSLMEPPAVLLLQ
Change	normalised enrichment score
A6Q	1.25
S2G	1.61
S12M	1.19
F8G	-0.0248
V3C	1.37
L7P	-0.0815
R4A	0.359
F8E	-0.119
S12R	0.823
R5S	0.0779
G11D	1.32
V3R	0.598
F8H	0.177
R4D	-0.409
L7W	-0.401
A6H	0.612
G10S	1.41
S12H	1.08
R5F	-0.206
G10K	0.473
F8P	0.199
S2K	1.47
A6M	-0.102
V3N	-0.338
G10C	0.839

Sample 4 — technique: EMSA with sequencing; molecule type: double-stranded DNA, one strand shown; medium: in vitro; tested at: 10 and 20 nM; relative to: negative control set to 0; direction: higher = stronger binding
Target: Hepatocyte nuclear factor 3-alpha (Foxa1, Mus musculus, UniProt P35582, residues 1-468, full length assumed)
UniProt P35582, sequence (whole entry, looked up): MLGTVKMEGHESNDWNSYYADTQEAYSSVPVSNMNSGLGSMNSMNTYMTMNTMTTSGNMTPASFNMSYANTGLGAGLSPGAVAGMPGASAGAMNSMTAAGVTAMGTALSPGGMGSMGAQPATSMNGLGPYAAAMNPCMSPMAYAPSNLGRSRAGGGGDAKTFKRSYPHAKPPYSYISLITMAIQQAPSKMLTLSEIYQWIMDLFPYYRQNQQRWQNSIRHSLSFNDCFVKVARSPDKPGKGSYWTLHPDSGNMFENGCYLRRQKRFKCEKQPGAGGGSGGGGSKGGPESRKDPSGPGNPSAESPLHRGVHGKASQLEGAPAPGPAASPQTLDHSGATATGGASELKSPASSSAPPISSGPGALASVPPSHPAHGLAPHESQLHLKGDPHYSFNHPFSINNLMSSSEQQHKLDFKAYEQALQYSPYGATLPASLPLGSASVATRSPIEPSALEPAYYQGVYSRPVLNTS
Setting: whole designed probe, mean of two concentrations, ends assumed
Shared flanks, not repeated: GTGAGCGGTGCCCATTGATGGGGAAC … TTTCACTGGGATCGTGGGGAC
Sequence	normalised bound fraction [ratio]
TAGGAATTTGGTTAGCTCCCTAAATAACTTCTCTGCTTTCCTCATCTGCAATTAGCTAAATGGAAAGCAATCGTGATCTCAGGATAAGCCTCATGTTTACATTTGAGTTCAGACGCCCTCACCCGGTACCAAGACTGCAAAGCAGCCCCAAATACACCCTAACCCATCTTTCCAAGCATAAATCCTTTTGCTC	0.265
CAAGGCTGCTCACCCACTTCTTTAACCATTCTTCAAAAAAGTGAGCTGTTGTTATTGAACTTTTTATTATTACTTAATTACAAGAAAAAACAAAGTAAACAACCAAAAAAAATATAGTGTTGAGAAAATGCCAAGGCTGTTCACCCACTTCTTTAACCATTCTTCAAATTTACCATATATATATTTTTTTGAC	0.38
ATCTTCCCCCTCTTCCTTGCCCCACCAGCTCACCTTCCCGGGTTATTTGCACAAAGGAAAATAAATAAAGCCGGCATTCGTTAACCCTCTTCTGGCGCAAACTGCTGTTTGCTCTGCATCTAACATGGTCCTTACGCGAGGCGTGGCTCCGGGAGAGCAAAGCACCGTGTCAGGCGCATGATCCGGGCTCGCC	0.379
ATCTTCCCCCTCTTCCTTGCCCCACCAGCTCACCTTCCCGGGTTATTTGCAGATAGGAAAATAAATAAAGCCGGCATTCGTTAACCCTCTTCTGGCGCAAACTGCTGTTTGCTCTAGCAGGATTATGGTCCTTTGGCGACGCCAGGCTCCGGGAGAGCAAAGCACCGTGTCAGGGCCATGATCCGGGGTGGCC	0.366
GAAATACTTCATATAAGCCAGAAAAAGATAATTATTTTAATGAATACAATTGAAAAGCAGTTCAATTAATTATTATTTGGAGATGATATCTTTGTTTACTTAGAAAGACAGCAAAAGCAACTGAAAGGTGATTTTAGAAATCTATTCAGGTGGGTAGGGAAAATTCTCAGATGACCCTCAGGTTCCCACTTCA	0.42
CTTCCACCCGCTCCTTCTCCCTGGATTAAAACACCACGAATTTTCTGCTCTTTGCTTTTCTTGAATAAGTTACCAAAAAAGAGCAGAACTAAGTCAACACCAAACTGCCCTTTGGATAAACAAGATGGAGCAGATTTATTTACCTTGGAACATGATTTTGAATTCAAGCCATGAAGTACACTGGAGGAATGCC	0.355
CTTCCCACAGCCGACCTCCTCCGCCTGTCCCTCCCGCCACCCCGCCTGTCCCCCGCCTTTCCAGCAGCCTCCAAGTGGCAGGCTGGGTGCTGTGTCATTTAGGGTGTGTGCCCTGCCAGGTGCACGGGGCGGGTCGGGAACCGGTTACCTGGCGGGCGGGCGAGGCGCACCACCTGGCTCGTGCCTCACCGCG	-0.0831
CTTCAAAGTAGCTCCCATATGGACTGAATATAGGATACGAGCCTCTGCCTAGCCTTCAGTCCTTTTTGTTTGGTTTAGGTGTTGGTTGTCTTTGTAATCTCTGGAAGCTGCTGAGTCATCTCCCTCGGCTTTTTCCATCACACTTTACCCCACATACATTCATACACACTTGGCTCAAGCTTTTCGGTTCTTT	0.184

Repeated from above (sample 4):
Sequence	normalised bound fraction [ratio]
TAGGAATTTGGTTAGCTCCCTAAATAACTTCTCTGCTTTCCTCATCTGCAATTAGCTAAATGGAAAGCAATCGTGATCTCAGGATAAGCCTCATGTTTACATTTGAGTTCAGACGCCCTCACCCGGTACCAAGACTGCAAAGCAGCCCCAAATACACCCTAACCCATCTTTCCAAGCATAAATCCTTTTGCTC	0.265
CAAGGCTGCTCACCCACTTCTTTAACCATTCTTCAAAAAAGTGAGCTGTTGTTATTGAACTTTTTATTATTACTTAATTACAAGAAAAAACAAAGTAAACAACCAAAAAAAATATAGTGTTGAGAAAATGCCAAGGCTGTTCACCCACTTCTTTAACCATTCTTCAAATTTACCATATATATATTTTTTTGAC	0.38
ATCTTCCCCCTCTTCCTTGCCCCACCAGCTCACCTTCCCGGGTTATTTGCACAAAGGAAAATAAATAAAGCCGGCATTCGTTAACCCTCTTCTGGCGCAAACTGCTGTTTGCTCTGCATCTAACATGGTCCTTACGCGAGGCGTGGCTCCGGGAGAGCAAAGCACCGTGTCAGGCGCATGATCCGGGCTCGCC	0.379
ATCTTCCCCCTCTTCCTTGCCCCACCAGCTCACCTTCCCGGGTTATTTGCAGATAGGAAAATAAATAAAGCCGGCATTCGTTAACCCTCTTCTGGCGCAAACTGCTGTTTGCTCTAGCAGGATTATGGTCCTTTGGCGACGCCAGGCTCCGGGAGAGCAAAGCACCGTGTCAGGGCCATGATCCGGGGTGGCC	0.366
GAAATACTTCATATAAGCCAGAAAAAGATAATTATTTTAATGAATACAATTGAAAAGCAGTTCAATTAATTATTATTTGGAGATGATATCTTTGTTTACTTAGAAAGACAGCAAAAGCAACTGAAAGGTGATTTTAGAAATCTATTCAGGTGGGTAGGGAAAATTCTCAGATGACCCTCAGGTTCCCACTTCA	0.42
CTTCCACCCGCTCCTTCTCCCTGGATTAAAACACCACGAATTTTCTGCTCTTTGCTTTTCTTGAATAAGTTACCAAAAAAGAGCAGAACTAAGTCAACACCAAACTGCCCTTTGGATAAACAAGATGGAGCAGATTTATTTACCTTGGAACATGATTTTGAATTCAAGCCATGAAGTACACTGGAGGAATGCC	0.355
